Measurements gathered from unrelated publications.
Protocols differ between the studies behind these lines. “And” joins repeats or separate records; there may be more than shown. ± marks the error that the study gave.

Structure (SMILES) = Cn1cc(-c2cn3nccc3c(-c3cnn([C@]4(CC#N)C[C@@H](C#N)C4)c3)n2)cn1; system = healthy humans fed, plasma; conditions = 1200 mg once daily, day 10, geometric mean; Cmin = 62.3 ng/mL
Structure (SMILES) = C[C@H](CCC(=O)O)[C@H]1CC[C@H]2[C@@H]3CC[C@@H]4C[C@H](OS(=O)(=O)O)CC[C@]4(C)[C@H]3CC[C@]12C; system = human, plasma; conditions = control; Cmin = 283 ± 16 nM
Structure (SMILES) = Cc1ncnc2c1ccn2[C@@H]1C[C@H](Oc2cc(C(F)F)c(F)c3c2CNCC3)[C@@H](O)[C@H]1O; system = human; conditions = oral, 1 mg twice daily; Cmin = 7.19 ng/mL and 13.6 ng/mL
Structure (SMILES) = O=C(O)CCCCCCCCC(=O)O; system = human, plasma; conditions = endogenous baseline diurnal; Cmin = 21.7 ± 0.9 nM
Structure (SMILES) = CCCCOCCOc1ccc(-c2ccc3c(c2)/C=C(/C(=O)Nc2ccc([S@@+]([O-])Cc4cncn4CCC)cc2)CCCN3CC(C)C)cc1; system = human, matched controls (mild impairment), plasma; conditions = oral, 150 mg, day 1; Cmin = 94 ng/mL
Structure (SMILES) = C[C@H](CCC(=O)NCC(=O)O)[C@H]1CC[C@H]2[C@@H]3[C@H](O)C[C@@H]4C[C@H](O)CC[C@]4(C)[C@H]3CC[C@]12C; system = human, plasma; conditions = endogenous baseline diurnal; Cmin = 74.7 ± 11.1 nM
Structure (SMILES) = CCOc1c([C@H](C)n2nc(C)c3c(N)ncnc32)cc(Cl)c(F)c1[C@@H]1CNC(=O)C1; system = human patients, plasma; conditions = oral, 15 mg once daily, cycle 1 day 15, monotherapy, geometric mean; Cmin = 129 nM
Structure (SMILES) = O=C(O)CCC(=O)O.[2H]C([2H])([2H])Oc1cc(C)c2[nH]ccc2c1CN1CC[C@@H](C2CC2)C[C@H]1c1ccc(C(=O)O)cc1; system = human, plasma; conditions = 125 mg twice daily, day 10, multiple ascending dose, geometric mean; Cmin = 2850 ng/mL
Structure (SMILES) = Fc1ccc([C@@H]2CCNC[C@H]2COc2ccc3c(c2)OCO3)cc1; system = human, all CYP2D6 genotypes, plasma; conditions = oral, 20 mg, steady state; Cmin = 15 ng/mL

Repeated from above:
Structure (SMILES) = C[C@H](CCC(=O)NCC(=O)O)[C@H]1CC[C@H]2[C@@H]3[C@H](O)C[C@@H]4C[C@H](O)CC[C@]4(C)[C@H]3CC[C@]12C; system = human, plasma; conditions = endogenous baseline diurnal; Cmin = 74.7 ± 11.1 nM
